Measurements of several laboratories.
Lines come from different studies, so protocols differ. ± marks the error that the study gave.
Target: Mu-type opioid receptor (OPRM1, Homo sapiens, UniProt P35372)
Chain of UniProt P35372 (whole entry, looked up): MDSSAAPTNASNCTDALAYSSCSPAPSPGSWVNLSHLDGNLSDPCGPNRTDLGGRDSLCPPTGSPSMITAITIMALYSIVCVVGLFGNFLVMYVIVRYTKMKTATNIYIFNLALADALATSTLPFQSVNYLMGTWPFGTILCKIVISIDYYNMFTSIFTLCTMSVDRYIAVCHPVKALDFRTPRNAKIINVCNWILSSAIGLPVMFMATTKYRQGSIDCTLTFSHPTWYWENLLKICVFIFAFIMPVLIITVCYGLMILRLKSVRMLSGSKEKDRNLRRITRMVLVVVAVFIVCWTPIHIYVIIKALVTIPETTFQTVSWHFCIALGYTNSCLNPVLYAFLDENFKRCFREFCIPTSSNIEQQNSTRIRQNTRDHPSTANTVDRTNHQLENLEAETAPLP

C[C@H](CCC(=O)O)[C@H]1CC[C@H]2[C@@H]3[C@H](OS(=O)(=O)O)C[C@@H]4C[C@H](O)CC[C@]4(C)[C@H]3C[C@H](O)[C@]12C  inhibition (100 µM): 4%
O=C1c2sc(-c3ccc(N4CCC(CO)CC4)nc3F)nc2CCN1c1cccnc1  inhibition (ligand displacement, radioligand; 1 µM): 9%
COCC(=O)N1CCc2cc(-c3csc(NC(=O)c4cc(OC)cc(OC)c4)n3)ccc21  inhibition (cell-free assay; 10 µM): -15%
CC(=O)[C@]12NC(C)(C)C[C@@]1(C)C(=O)C1=C2c2c(c3c4n2C(C)(C)CC2=C4[C@@]4(CC(C)(C)N[C@@](C)(C4)C2=O)CC3(C)C)C(=O)C(C)(C)N1 (racemic)  activation (cAMP level, agonist, LANCE Ultra cAMP; CHO; 10 µM): 1.18 ± 0.35%
Cc1cccc(O[C@H]2CCC[C@@H](C(C)CNCc3ccncc3)C2)c1 (relative stereo)  inhibition (ligand displacement; 10 µM): 74%
C[Si]1(C[C@H](CN)CC(=O)O)CCCC1  inhibition (ligand displacement, radioligand; 70 µM): 11%
Cn1ccc2cc(-n3c(=O)[nH]c4sc5c(c4c3=O)CCCC5)ccc21  inhibition (ligand displacement, radioligand; 10 µM): 5%
CCC(=O)N(C)c1ccc(Cl)c(Cl)c1  inhibition (ligand displacement, radioligand; 10 µM): < 10%
CC(=O)c1cnc(N)nc1N1CC[C@H]1c1nn2ccc(Cl)c2c(=O)n1-c1ccccc1  inhibition (ligand displacement, radioligand; 10 µM): 12%
COc1ncc2nc(C)n(Cc3ncc(S(N)(=O)=O)cc3F)c2c1-c1ccccc1  activation (agonist, cell-based; 10 µM): 0.456%
Brc1ccccc1-c1nnc(CSc2nnnn2-c2ccccc2)o1  inhibition (ligand displacement, radioligand; 10 µM): 12%
C[Si](C)(C)C[C@H](CN)CC(=O)O  inhibition (ligand displacement, radioligand; 250 µM): 9%
